Measured values from different studies.
A part holds a random share of what one study measured.

Study 1
Target: Hepatocyte nuclear factor 3-alpha (Foxa1, Mus musculus, UniProt P35582, residues 1-468, full length assumed)
Method: EMSA with sequencing
Molecule type: double-stranded DNA, one strand shown
Medium: in vitro
Concentration: 10 and 20 nM
Setting: whole designed probe, mean of two concentrations, ends assumed
Relative to: negative control set to 0
Reading: higher = stronger binding
Construct (chain): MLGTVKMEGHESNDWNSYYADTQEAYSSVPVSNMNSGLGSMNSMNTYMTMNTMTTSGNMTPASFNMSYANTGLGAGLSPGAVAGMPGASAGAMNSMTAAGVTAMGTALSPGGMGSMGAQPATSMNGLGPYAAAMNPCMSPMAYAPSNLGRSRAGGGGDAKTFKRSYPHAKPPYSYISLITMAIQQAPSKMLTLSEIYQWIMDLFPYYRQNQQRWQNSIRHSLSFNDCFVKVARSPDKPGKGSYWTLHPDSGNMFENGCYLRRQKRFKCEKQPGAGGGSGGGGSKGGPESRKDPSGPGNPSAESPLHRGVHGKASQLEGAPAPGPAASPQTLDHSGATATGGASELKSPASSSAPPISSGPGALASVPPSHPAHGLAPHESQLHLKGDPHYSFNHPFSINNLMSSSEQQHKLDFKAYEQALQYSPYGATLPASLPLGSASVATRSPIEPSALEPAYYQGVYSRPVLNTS
Sequence	normalised bound fraction [ratio]
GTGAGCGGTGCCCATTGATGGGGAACGAGGGGACGCCCTGGAGCTCAGGTGCTCAAGGGCGTGCGCGGGGCTCGGCCGCCGGTGTCCCTGGAGATGCTTCTCTGGTCTGGTGTGACACGTGTGTACACAGTCCCCGCCCTCTGGTCAGCGCCCGGGTGCGTGTGCTCCCTCCCGACCACCCTGAGGAGCGAGGGTGCTGGTCCCCGAGAGGGCGGCGAGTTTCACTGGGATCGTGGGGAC	0.159
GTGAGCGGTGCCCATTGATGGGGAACATCCACGAACCTGGCCCTGTCTGGTAACCACAGTGAACCATCGCAAGATACAGCACTATGTGCCCAGTTGGGCTGGTAATGTCACACAAATGTGTCAACACTGGCACATCCTCAGGGACATAATGACTCACTTGTTTTTGGAGAGGGACTAGACCTTCATCCTTGAGGTGAAGAAGATTTTCTCTCCAGGGTGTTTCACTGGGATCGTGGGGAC	0.0463
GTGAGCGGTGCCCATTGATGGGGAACCGTTTGCCAGCCCAAGATAGGCTGTGACAAAAGGAAGTGAGCCTTATCTATCAGTGGAGGTTGAACAACCAGCAACGTGAGTCATCCGCAAAAGTAAACAGCTGGGGCTAGATGCGGTGGCTCGCGCCTGTAATCCCAGCACTTTAGGAGGCCAAGGCAGGTGGATTACCTGAGGTCAGCCTGACCAACATGGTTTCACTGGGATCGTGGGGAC	0.289
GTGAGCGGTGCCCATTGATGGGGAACATCTTCCCCCTCTTCCTTGCCCCACCAGCTCACCTTCCCGGGTCAAAGTAAACAAGTGTTTACTTTGAAGCCGGCATTCGTTAACCCTCTTCTGGCGCAAACTGCTGTTTACTTTGGATGAATCATGGTCCTTTGGCGACGCCAGGCTCCGGGAGAGCAAAGCACCGTGTCAGGGCCATGATCCGGGGTGGCCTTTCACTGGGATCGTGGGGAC	0.511
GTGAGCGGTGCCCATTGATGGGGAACAAAAGATTTGGTATCGTTTAAAAAAAAAAAAAAGCTGGGTGGGGCCGAGGAGAATCCACCCAAACTTTCCTCAGGAAGTAGGAAGATTACTGAGTAATTTTGCGGTAGTCACAGAAACACCTGCTACTCCTTTAAGACCTCAGGAGCCACCACCGCCACCTCCTGGCCACATCCGGGCACTTCTCTGCAAACTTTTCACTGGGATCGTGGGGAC	-0.0349
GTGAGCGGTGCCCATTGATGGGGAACCACTCATAGTCTTGCTATCCTTCATATACAGAGATGACCCTCCCAAGCCTAAAATCAACAGGGGGAGGCATAGAGCTGTCCTTCTGGCTCTAATGTTTGCTTTACCATCATCTCCACGCCCATTTAGTCCAGCATGTGAGAGCCAGTGTGAAGTGAGCAGAATATGGCATAAGTATGGAGTCATACATCCTTATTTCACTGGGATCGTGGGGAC	0.283

Study 2
Target: RING finger protein unkempt homolog, zinc fingers 1-6, SBP tag (UNK, Homo sapiens, UniProt Q9C0B0, residues 30-357)
Sequence of UniProt Q9C0B0 (30-357, looked up): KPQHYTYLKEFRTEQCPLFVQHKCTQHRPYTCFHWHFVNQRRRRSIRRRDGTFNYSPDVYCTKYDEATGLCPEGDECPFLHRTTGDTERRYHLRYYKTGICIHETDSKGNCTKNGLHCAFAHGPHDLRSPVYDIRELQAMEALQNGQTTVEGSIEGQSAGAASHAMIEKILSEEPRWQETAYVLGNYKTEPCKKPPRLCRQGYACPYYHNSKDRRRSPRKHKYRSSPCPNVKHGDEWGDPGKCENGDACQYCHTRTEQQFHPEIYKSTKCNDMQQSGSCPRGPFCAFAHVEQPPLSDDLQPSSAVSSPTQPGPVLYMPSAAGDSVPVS
Method: RNA Bind-n-Seq
Molecule type: RNA
Medium: in vitro
Concentration: 100 nM
Setting: RNA with constant flanks, vertebrate orthologous sites, ends assumed
Relative to: input RNA pool
Reading: higher = stronger binding
Sequence	bound/input enrichment [ratio]
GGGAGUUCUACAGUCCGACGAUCGUCACGGGACACCGAAUGGAGAGAGAAGCAAAUCAAACCAGCAAAGGUUGGGUAAAAUUGCUGCCAUCUGCAUAAUGGCUAAGUUGCAGUCACUUUUCUGCGUAAAACCAGCUGUGUUUACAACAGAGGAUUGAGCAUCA	0.396
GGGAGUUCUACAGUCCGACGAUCUUCAGGCUCAAUUGACUGUUUCACAGCAUUCCUUACACAGCUAUUUAACAAGUACAAGUGGAGUUAAUUUUCAGGAUACAUGUAGGCACUCAGCAUUAUCCUGCAGUCCAGUUGGAGAUGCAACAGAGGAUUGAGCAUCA	0.352
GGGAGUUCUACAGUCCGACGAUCGGAAAGUUACAGACCAGACUCUGAAAGCAGGAGUACAGGAUCCUGGUUAUCGUCAUCUUUGAGGAACAGAUGUACACCGCUCUUUUCCAGAAGAAGAAGAGAAGGGAGAGAUGAAUCUGCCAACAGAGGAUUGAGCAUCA	0.421
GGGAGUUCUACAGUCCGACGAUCCCGGGUCCUCCCGCACCGACCCCAGGCUCAGGGACCAGGUGUUGCAUUGAGGACCUGCCUUUCAAACACUUUUUUAAAUUGUCCAGCAAGAGAUGUGACCAAAACAGCAUCUCAAAGUCGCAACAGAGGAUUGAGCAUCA	0.304
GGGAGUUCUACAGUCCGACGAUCACCCCGAUUUUAGAUGUGAUAUCUAGGCUUUCAUUCCAGUUUGUUUUGUCUUUUCUUGUUUAGAUACCAACCUUUUAAAUUCUUGCAUUUUAGUAAGAAAAGCUACCUUUUUAUGGAUGUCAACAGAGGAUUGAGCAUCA	0.823
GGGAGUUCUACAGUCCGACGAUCCAGCCGAUUCACUUAUUGGGAGAGCUGCACAUAUUGCUGUUCUUGAUUCAGAAAUAUUUUUAGAAAAAUUCUUUCUGGUGGCUGCUCUAAAAUAUUUCCAGUAGCCAAAAAGCAUUGUUACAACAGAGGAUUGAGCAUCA	0.625
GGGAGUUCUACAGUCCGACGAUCUUGUGCUUAUGCUCUUCUGUAGAAGAGACGAAUUGGGGAAACUGUCUCCUUUUUAUAGACUACUUUGUUUCUAAAUUAUGACCAAAAAAUAUUUUGCUAUUUCUUUCUUUAUAUAUGGACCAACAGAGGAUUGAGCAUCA	0.972

Study 3
Target: RNA binding protein fox-1 homolog 2, RRM domain, GST-SBP tag (RBFOX2, Homo sapiens, UniProt O43251-10, residues 100-194)
Method: RNA Bind-n-Seq
Molecule type: RNA
Medium: in vitro
Concentration: 365 nM
Setting: natural RNA segment, single round, ends assumed
Relative to: no-protein control
Reading: higher = stronger binding
Target sequence (chain): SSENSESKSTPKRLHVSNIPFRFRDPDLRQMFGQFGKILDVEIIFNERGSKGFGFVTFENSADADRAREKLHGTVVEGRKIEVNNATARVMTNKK
Sequence	RBNS enrichment (R)
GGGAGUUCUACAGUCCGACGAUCUCUUGUCCCAGCUUCUCCCCUGGGGGCCUGAGAGACCCUCACCUUCCUUCUGCCCAUCUUCCAUGUUGUAAAGGAACAGCCCCAGUGCACUGGGGGAGGGGAGGGAGUGAUGGAAUUCUCGGGUGCCAA	0.239
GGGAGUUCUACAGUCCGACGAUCAAUGCUAGCUUGUGUGGUCUUCCAUGAUUUAUUUGUGUUUUGUGAAUUUUCAAUUUAUGGUGAUGAUCUGCUGAUAUGCAUUUAUAAAGUAAGCUCUGUUGUACAGUCUGUGGAAUUCUCGGGUGCCAA	0.786
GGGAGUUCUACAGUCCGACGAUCUUCCUGUAGCUGUCAAGUGGUCUCCAGCAGUUCACUCCAUCAUGUUGCACAGUACUAAGAGACUCAUUCAGAAAUCAAGACUUUAGAUGUAAUAUGUUGAUUAAAAUGUAUGGAAUUCUCGGGUGCCAA	0.322
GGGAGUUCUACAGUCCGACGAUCAAAUUGUGGUUUUAGAAACCAACUCUUGAUAGUUGUACUGUGAUUAUAAAAAACAAUUGUUAAAUAAUAUAAUGGAAGUUUGUGAUAAUUCCUUAGCAGUAAUGUAAAAUUGGAAUUCUCGGGUGCCAA	1.14
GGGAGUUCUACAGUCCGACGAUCUGGGUUUGUUGUUUAACCUUAGCGAGAUCCUUUAACUGCAGCAAUAUUCAAGCCAGAUAUUUGGAAGCAAAUGAUAUUUCCUCUUGCAGUGUCCACAAAUCUGAAUAUUAUGGAAUUCUCGGGUGCCAA	0.678
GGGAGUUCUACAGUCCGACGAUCGCAACUCUCGGGCAGCCUGCCCAAGGGAGGGAGCAAGUUGCAAUUUAGAAGAUGCCAUACGUCGUGUGACAGCUCAUGAGCCUUUCACUGGGCUGGCAAUUGUCUGAACAUGGAAUUCUCGGGUGCCAA	0.444
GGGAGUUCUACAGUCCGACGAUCAAGUCACCAGGACUUGGGGUCAGGAACAGUGGCUGGGUGGGCCCAGAACUGCCCCCACUGUCCCCCUACCCACCGAUGGAGCCCCCAGAUAGAGCUGGGUGGCCUGUUUCUGGAAUUCUCGGGUGCCAA	0.333
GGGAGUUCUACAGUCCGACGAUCACCAAGUGCUGCGACUCAGCCAACAACUUACCACAUUCGGGGCUGGGAGCUGUUCUAAGAAAGGGACCUCCCUCUCCUUUUUAAAUUGGUGAGCCACAAAUUACAUUGAUUGGAAUUCUCGGGUGCCAA	0.422
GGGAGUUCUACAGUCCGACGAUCGCAUCUCAGCAUCUGGGUGGAAGCUGCCUAUAUUUCUUCCCAGUUUAACUGGGGACCAUCUGUGAAAUUAAUUUUCCAUCCAGACAGCUGCUGUGAGCAAAUGAACAUAAUGGAAUUCUCGGGUGCCAA	0.407
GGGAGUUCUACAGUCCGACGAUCCUGCAGUCUGCGCCGUUUGAAAACCCUGAGAAAGAGAUGCCACCUCAACUUGAAUCAUGACAGCCCAUCGCUCAGUCUCACCCUAAACUCAUGGAGCUUGUUUCAGCUCCUGGAAUUCUCGGGUGCCAA	0.5
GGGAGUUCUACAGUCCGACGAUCCUUCUCCCGGGACCAUCCUGAUAUGGCGGUUCAUUCAGAAUGACCUGGAGGGGAAGGUGGGUGGGCGUUCUCUAAGGCACAACACCCCAAAGGCCGACUGUACCCAUGAGUGGAAUUCUCGGGUGCCAA	0.341
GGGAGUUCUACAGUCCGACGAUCCUCAUCAAAACUAAAGACAGCAAAAGGCUUGUCAGUGAUCUAAGGGUUUGUGAGCUCUCUGCUCUGUUUUUGCUGUUUACUGGACUUUGGUUUCUUUCAUAACCCAUUUCUGGAAUUCUCGGGUGCCAA	1.07

Study 4
Target: Histone acetyltransferase KAT6A, winged helix 1, GST fusion (KAT6A, Homo sapiens, UniProt Q92794, residues 1-85)
Method: protein binding microarray
Molecule type: double-stranded DNA, one strand shown
Medium: in vitro
Concentration: not given
Setting: 8-mer, flanks averaged, mean of 2 arrays, mostly near background
Relative to: not given
Reading: higher = stronger binding
Residues (chain): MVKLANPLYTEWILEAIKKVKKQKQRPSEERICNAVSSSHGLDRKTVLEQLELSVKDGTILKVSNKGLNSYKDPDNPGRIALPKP
Sequence	E-score
GAGAAAAC	-0.021
CGGCTCAC	0.201
CCTTCCTA	-0.137
TAACCTGA	-0.17
CGAGCCTA	-0.149
AAGCGCAC	0.306
AGCAGAAC	-0.13
AGTCGGAT	0.0529
AATAGAGT	-0.192
AAATGATC	-0.103
GTCCGCAA	0.203
GGACGGAA	0.212
CTCGCGTA	0.21
AAGCGAGT	0.00934
CATATTGG	-0.259
TAAGAGTA	-0.207
ACTATGAC	-0.118
ACGGACAT	0.258
ACGACTGC	-0.0158

Excerpt of the above (study 2):
Sequence	bound/input enrichment [ratio]
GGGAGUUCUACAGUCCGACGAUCUUCAGGCUCAAUUGACUGUUUCACAGCAUUCCUUACACAGCUAUUUAACAAGUACAAGUGGAGUUAAUUUUCAGGAUACAUGUAGGCACUCAGCAUUAUCCUGCAGUCCAGUUGGAGAUGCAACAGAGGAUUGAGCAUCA	0.352
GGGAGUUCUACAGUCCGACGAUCGGAAAGUUACAGACCAGACUCUGAAAGCAGGAGUACAGGAUCCUGGUUAUCGUCAUCUUUGAGGAACAGAUGUACACCGCUCUUUUCCAGAAGAAGAAGAGAAGGGAGAGAUGAAUCUGCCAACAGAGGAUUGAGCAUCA	0.421
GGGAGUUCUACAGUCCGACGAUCCCGGGUCCUCCCGCACCGACCCCAGGCUCAGGGACCAGGUGUUGCAUUGAGGACCUGCCUUUCAAACACUUUUUUAAAUUGUCCAGCAAGAGAUGUGACCAAAACAGCAUCUCAAAGUCGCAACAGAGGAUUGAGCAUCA	0.304
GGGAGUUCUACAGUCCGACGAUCACCCCGAUUUUAGAUGUGAUAUCUAGGCUUUCAUUCCAGUUUGUUUUGUCUUUUCUUGUUUAGAUACCAACCUUUUAAAUUCUUGCAUUUUAGUAAGAAAAGCUACCUUUUUAUGGAUGUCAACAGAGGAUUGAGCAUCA	0.823
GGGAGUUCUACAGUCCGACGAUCCAGCCGAUUCACUUAUUGGGAGAGCUGCACAUAUUGCUGUUCUUGAUUCAGAAAUAUUUUUAGAAAAAUUCUUUCUGGUGGCUGCUCUAAAAUAUUUCCAGUAGCCAAAAAGCAUUGUUACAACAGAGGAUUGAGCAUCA	0.625
